Results pooled from the literature.
A part holds a random share of what one study measured. Positions count from the first letter of the parent shown.

Block 1
Target: CEP164, C-terminal peptide (human)
Technique: DHFR complementation, deep sequencing
Medium: yeast
Notes: single substitutions, model-inferred values
Baseline: wild type
Direction: higher = weaker binding
Parent: PDZK1, PDZ domain 2 (human); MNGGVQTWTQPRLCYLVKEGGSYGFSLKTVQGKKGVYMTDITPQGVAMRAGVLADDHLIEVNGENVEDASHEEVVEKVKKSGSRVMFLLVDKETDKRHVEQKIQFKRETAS; partner HNRVKVYRF
`K106C`: “binding free energy change” -0.0759 kcal/mol.
`A110Q`: “binding free energy change” -0.106 kcal/mol.
`V36A`: “binding free energy change” -0.0525 kcal/mol.
Under “binding free energy change”, `M86A` is recorded as -0.196 kcal/mol.
`I103A` — result for “binding free energy change”: -0.115 kcal/mol.
For `E100G`, “binding free energy change” read -0.142 kcal/mol.
`V46D` — result for “binding free energy change”: 1.56 kcal/mol.
Under “binding free energy change”, `Q104H` is recorded as -0.101 kcal/mol.
`H71S`: “binding free energy change” 0.0854 kcal/mol.
For `D91I`, “binding free energy change” read 0.527 kcal/mol.
`S70P` — result for “binding free energy change”: -0.308 kcal/mol.
Under “binding free energy change”, `Q10L` is recorded as 0.353 kcal/mol.
Under “binding free energy change”, `F25D` is recorded as 1.56 kcal/mol.
`N2A`: “binding free energy change” -0.0989 kcal/mol.
Under “binding free energy change”, `Q31E` is recorded as -0.322 kcal/mol.
Under “binding free energy change”, `I41C` is recorded as 1.34 kcal/mol.
`V52Y` — result for “binding free energy change”: 1.1 kcal/mol.
`L13M`: “binding free energy change” 0.000895 kcal/mol.
Under “binding free energy change”, `D55Y` is recorded as 0.443 kcal/mol.
`M86C` — result for “binding free energy change”: -0.141 kcal/mol.
`K92A` — result for “binding free energy change”: -0.224 kcal/mol.
For `K18L`, “binding free energy change” read 0.768 kcal/mol.
For `K79V`, “binding free energy change” read 0.0357 kcal/mol.
For `Q31V`, “binding free energy change” read -0.263 kcal/mol.
`V74R`: “binding free energy change” 0.383 kcal/mol.

Block 2
Target: ABI1, truncated, D143A, DHFR fusion (Arabidopsis thaliana)
Technique: DHFR PCA, deep sequencing
Medium: yeast
Notes: methotrexate growth selection, single substitutions
With: (+)-ABA 0.11 µM
Baseline: wild-type fitted maximum
Direction: higher = stronger binding
Parent: PYL1, truncated, DHFR fusion (Arabidopsis thaliana); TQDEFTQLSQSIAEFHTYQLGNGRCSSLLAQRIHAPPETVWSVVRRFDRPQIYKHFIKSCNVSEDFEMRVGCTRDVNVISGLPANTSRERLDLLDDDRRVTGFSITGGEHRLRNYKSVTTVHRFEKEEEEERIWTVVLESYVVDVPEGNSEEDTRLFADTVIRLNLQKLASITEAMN
For `Y141E`, “relative binding score” read -2.27%.
Under “relative binding score”, `Y18M` is recorded as -3.43%.
`V43Q`: “relative binding score” -5.73%.
`N85Q` — result for “relative binding score”: 59.3%.
`V143D`: “relative binding score” -1.24%.
Under “relative binding score”, `K168W` is recorded as 25.7%.
`T101I` — result for “relative binding score”: 78.6%.
Under “relative binding score”, `L169D` is recorded as -0.618%.
For `S26A`, “relative binding score” read 20.1%.
`A158L`: “relative binding score” 53.4%.
`N165G`: “relative binding score” 5.67%.
For `V121N`, “relative binding score” read -7.07%.
For `T86V`, “relative binding score” read 44.9%.
Under “relative binding score”, `I57A` is recorded as 1.84%.
For `V40H`, “relative binding score” read 5.72%.
For `F15K`, “relative binding score” read -1.06%.
`E38A` — result for “relative binding score”: 1.4%.
Under “relative binding score”, `V136T` is recorded as 1.25%.
`L166W` — result for “relative binding score”: 1.77%.
`L169E`: “relative binding score” 0.0345%.
`A30T` — result for “relative binding score”: 18.8%.
`A13H` — result for “relative binding score”: 21.8%.
`E109V` — result for “relative binding score”: 1.17%.
Under “relative binding score”, `Q2P` is recorded as 67.7%.
`P83Q` — result for “relative binding score”: 17.6%.

Block 3
Target: CCNA2, cyclin fold, Cln2 fusion (human)
Technique: yeast growth competition, sequencing
Medium: yeast
Notes: strong parent motif
Baseline: not given
Direction: higher = stronger binding
Parent: TICRR docking peptide (human); TKVRRNLFNQELL
`F8L` — result for “normalised enrichment score”: 1.42.
`L13A`: “normalised enrichment score” 5.88.
`R5A L7A` — result for “normalised enrichment score”: 0.542.
For `R4A`, “normalised enrichment score” read 2.95.
For `R5K`, “normalised enrichment score” read 3.74.
For `T1A`, “normalised enrichment score” read 3.85.
`R5A` — result for “normalised enrichment score”: 0.858.
`L12A` — result for “normalised enrichment score”: 4.74.
`N6A` — result for “normalised enrichment score”: 5.24.
`V3A` — result for “normalised enrichment score”: 3.03.

Further values, each from its own experiment
The fold induction of `PhoQ, residues 284 288 289 292 302 303 NSMLDC` is reported as 17.6 (PhoP, residues 12 14 15 18 19 MHTVL (Escherichia coli, UniProt P23836); Sort-seq, measured: YFP reporter; E. coli; PhoQ-PhoP variant library, with: 10 µM Mg2+; baseline: high Mg2+ state, higher = stronger signaling).

For quick reference, copied from above (block 1):
`H71S`: “binding free energy change” 0.0854 kcal/mol.
For `D91I`, “binding free energy change” read 0.527 kcal/mol.
`S70P` — result for “binding free energy change”: -0.308 kcal/mol.
Under “binding free energy change”, `Q10L` is recorded as 0.353 kcal/mol.
Under “binding free energy change”, `F25D` is recorded as 1.56 kcal/mol.
`N2A`: “binding free energy change” -0.0989 kcal/mol.
Under “binding free energy change”, `Q31E` is recorded as -0.322 kcal/mol.
